Published values pooled from the literature.
Compare with care: the assays were run in different laboratories.
Target: Histone deacetylase 4 (HDAC4, Homo sapiens, UniProt P56524)
Chain of UniProt P56524 (whole entry, looked up): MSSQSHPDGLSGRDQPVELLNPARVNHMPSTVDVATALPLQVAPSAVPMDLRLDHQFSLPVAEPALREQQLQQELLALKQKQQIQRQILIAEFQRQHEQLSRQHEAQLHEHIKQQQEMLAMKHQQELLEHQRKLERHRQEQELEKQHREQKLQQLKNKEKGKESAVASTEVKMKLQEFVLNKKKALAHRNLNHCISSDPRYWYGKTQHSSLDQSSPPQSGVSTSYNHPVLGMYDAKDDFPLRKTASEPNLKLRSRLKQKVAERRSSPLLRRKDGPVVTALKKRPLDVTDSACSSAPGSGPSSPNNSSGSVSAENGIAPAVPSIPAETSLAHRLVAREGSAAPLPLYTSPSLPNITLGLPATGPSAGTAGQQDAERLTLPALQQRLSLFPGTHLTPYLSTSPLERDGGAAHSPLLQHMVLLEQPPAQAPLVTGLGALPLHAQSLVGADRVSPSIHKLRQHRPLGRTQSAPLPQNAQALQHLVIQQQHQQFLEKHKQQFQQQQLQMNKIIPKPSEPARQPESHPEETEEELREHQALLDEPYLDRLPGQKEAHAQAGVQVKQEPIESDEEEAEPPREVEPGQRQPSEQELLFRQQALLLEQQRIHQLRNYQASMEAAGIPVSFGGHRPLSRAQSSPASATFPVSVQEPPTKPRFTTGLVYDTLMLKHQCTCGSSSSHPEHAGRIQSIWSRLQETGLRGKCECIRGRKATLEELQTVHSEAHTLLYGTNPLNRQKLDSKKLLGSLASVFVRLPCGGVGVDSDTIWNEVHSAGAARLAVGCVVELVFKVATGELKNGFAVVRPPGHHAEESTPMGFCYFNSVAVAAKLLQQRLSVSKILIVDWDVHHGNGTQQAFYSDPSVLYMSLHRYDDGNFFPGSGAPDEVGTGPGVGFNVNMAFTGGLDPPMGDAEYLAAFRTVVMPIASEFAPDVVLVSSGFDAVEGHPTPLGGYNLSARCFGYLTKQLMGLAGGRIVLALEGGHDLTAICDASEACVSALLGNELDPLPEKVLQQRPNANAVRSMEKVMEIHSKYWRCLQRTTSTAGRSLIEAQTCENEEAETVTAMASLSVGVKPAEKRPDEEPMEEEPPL
Mode: inhibitor

O=C(CCCCCCNC(=O)c1cc(C(=O)c2ccccc2)cn1Cc1ccc(F)cc1)NO — IC50 (enzyme activity): > 50 µM
Cc1ncc2c(n1)CN(C(=O)Nc1nc(-c3cccs3)ccc1N)C2 — IC50 (deacetylase activity, recombinant enzyme): > 30 µM
N/C(=N\O)c1ccc2c(c1)Oc1ccccc1N2Cc1ccc(C(=O)NO)cc1 — IC50 (enzyme activity): 0.87 µM
COC(=O)c1ccc(Cn2sc3ccccc3c2=O)cc1 — IC50 (enzyme activity): > 10 µM
Cn1cc2c(n1)CN(C(=O)Nc1nc(-c3ccc(F)cc3)ccc1N)C2 — IC50 (deacetylase activity, recombinant enzyme): > 30 µM
O=c1c2ccccc2[s+]([O-])n1-c1ccccc1 (stereo not shown) — IC50 (enzyme activity): > 10 µM
COCCn1cc2c(n1)CN(C(=O)Nc1nc(-c3ccc(F)cc3F)ccc1N)C2 — IC50 (deacetylase activity, recombinant enzyme): > 30 µM
O=c1c2ccccc2sn1Cc1ccccc1 — IC50 (enzyme activity): > 10 µM
N/C(=N\O)c1ccc2c(c1)N(Cc1ccc(C(=O)NO)cc1)c1ccccc1O2 — IC50 (enzyme activity): 4.47 µM
CN1CCN(C(=O)N(CCCCCCC(=O)NO)c2ccc(-c3ccc4cnn(C)c4c3)cc2)CC1 — IC50 (enzyme activity, fluorescence): 1.5 µM
